Published values of several laboratories.
Lines come from different studies, so protocols differ. Numbers after ± are the reported error.
U2AF2: U2AF2 148-342 (Homo sapiens, UniProt P26368)
Sequence of UniProt P26368 (whole entry, looked up): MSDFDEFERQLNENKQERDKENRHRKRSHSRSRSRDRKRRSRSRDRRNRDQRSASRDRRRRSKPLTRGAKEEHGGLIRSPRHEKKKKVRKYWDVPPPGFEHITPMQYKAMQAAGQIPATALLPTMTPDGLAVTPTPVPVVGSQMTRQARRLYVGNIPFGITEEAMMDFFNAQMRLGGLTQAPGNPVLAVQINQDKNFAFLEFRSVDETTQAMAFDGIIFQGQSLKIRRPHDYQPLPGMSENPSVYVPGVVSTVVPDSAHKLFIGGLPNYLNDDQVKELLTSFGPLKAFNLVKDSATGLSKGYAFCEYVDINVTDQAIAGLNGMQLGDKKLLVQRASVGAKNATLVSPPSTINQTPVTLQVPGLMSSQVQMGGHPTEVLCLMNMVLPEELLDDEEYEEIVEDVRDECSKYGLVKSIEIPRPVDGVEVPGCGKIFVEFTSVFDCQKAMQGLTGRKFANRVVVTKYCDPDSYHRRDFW
B1: 6-pyruvoyl tetrahydropterin synthase (human); sequence looked up; chain MSTEGGGRRCQAQVSRRISFSASHRLYSKFLSDEENLKLFGKCNNPNGHGHNYKVVVTVHGEIDPATGMVMNLADLKKYMEEAIMQPLDHKNLDMDVPYFADVVSTTENVAVYIWDNLQKVLPVGVLYKVKVYETDNNIVVYKGE
B2: enzyme (Chlamydomonas reinhardtii, UniProt A0A2K3D977); chain ASDSVLAVWRKADAVCFDVDCTITVNDSLDLLAEFMGVKEQVEILTNKAMDGSLSLEQALEERLNIINCSPDDIKRFIKAHPPASRMAPGIKELINSLQARGKAIYLISGGFRELTLPIAAYLGIPKENVFANRMNWQWDDETGMPTKLVGFDMSEPTAHNQGKPQAIARIRQRNPYNTVVMIGDGITDLEAVQTTGGADLFIGSGVVVERPAVAREADWYVYDYTDLLRTMARYSVAMVGSGAWACAAVRMIAQNTQVDDAADEFVDEVRMWVYEEDFEGKKLTEVINQTHTNPKYFPGFDLGPNVVAVPNIVDAVADADLIVFCAPHQFLHHICKQLVGKIKPGAAAISLTKGMRVRPEGPQLISQMVRRLLGIDCCVLMGANIATDIGREQLSEAVIGYDNLDAATLFQKIFQRPYFRVNLLPDPVGAEMCGTLKNIVALGAGMVDGLGLGPNSKAAIIRQGLVEMRAFSKALYPSVRDDTFMESCGVGDLVATCYGGRNRLVACEWTKAQMEGKPRTFEDLETDLLKGQKLQGVLTSNEVQEILKVRGWESQYPLFTTVNRIINGYLPPKYVVEFVAGAKYHIRRPGTDDEEIVPVRPKRPAAAGGVATAPILAA
B3: SCO6712 V290N (Streptomyces coelicolor, UniProt Q9XAL8); chain AKGITARTAPAGGEVRHLKMYAEKLADGQMGYGFEKGKASVPGPLIEVNEGDTLHIEFTNTMDVRASLHVHGLDYEISSDGTAMNKSDVEPGGTRTYTWRTHKPGRRDDGTWRPGSAGYWHYHDHVVGTEHGTGGIRNGLYGPVIVRRKGDVLPDATHTIVFNDMTINNRKPHTGPDFEATVGDRVEIVMITHGEYYHTFHMHGHRWADNRTGILTGPDDPSRVIDNKITGPADSFGFQIIAGEGVGAGAWMYHCHNQSHSDMGMVGLFLVKKPDGTIPGYEPHEHGGATAKSGESGEPTGGAAAHEHEH
B4: human DDX3Y; sequence looked up; chain SHVVVKNDPELDQQLANLDLNSEKQSGGASTASKGRYIPPHLRNREASKGFHDKDSSGWSCSKDKDAYSSFGSRDSRGKPGYFSERGSGSRGRFDDRGRSDYDGIGNRERPGFGRFERSGHSRWCDKSVEDDWSKPLPPSERLEQELFSGGNTGINFEKYDDIPVEATGSNCPPHIENFSDIDMGEIIMGNIELTRYTRPTPVQKHAIPIIKGKRDLMACAQTGSGKTAAFLLPILSQIYTDGPGEALKAVKENGRYGRRKQYPISLVLAPTRELAVQIYEEARKFSYRSRVRPCVVYGGADIGQQIRDLERGCHLLVATPGRLVDMMERGKIGLDFCKYLVLDEADRMLDMGFEPQIRRIVEQDTMPPKGVRHTMMFSATFPKEIQMLARDFLDEYIFLAVGRVGSTSENITQKVVWVEDLDKRSFLLDILGATGSDSLTLVFVETKKGADSLEDFLYHEGYACTSIHGDRSQRDREEALHQFRSGKSPILVATAVAARGLDISNVRHVINFDLPSDIEEYVHRIGRTGRVGNLGLATSFFNEKNMNITKDLLDLLVEAKQEVPSWLENMAYEHHYKGGSRGRSKSNRFSGGFGARDYRQSSGSSSSGFGASRGSSSRSGGGGYGNSRGFGGGGYGGFYNSDGYGGNYNSQGVDWWGN
B5: enzyme (Methylibium petroleiphilum, UniProt A2SI32); chain PFAQIYLIEGRTEEQKRAVIEKVTQAMMEAVGAPKENVRVWIHDVPKENWGIGGVSAKALGR
B6: enzyme (UniProt A0A097IUE6); chain TKRAMMATVSSLGIDKATGITKPSKVHRNLPYPEVFEHEQKNKEGEVTKNGTFCVSTGAFTGRSPKDKYFVHQSPSCDTLDWGKINVGVAPDVYKNIYEKAVKHYNENVDSMYVFDGYCGTSPKSRKNVRIITELAWQHHFAKNMFIRPDSEKEVENFNPDFTIINACKVLNKDYKELGLNSDVAVIFNVEEKMAVITGTWYGGEMKKGIFSMMNYWLPLDGIMAMHCSANKGKGGDTALFFGLSGTGKTTLSADPDRYLIGDDEHGWDDHGIFNFEGGCYAKTVNLSKDNEPEIYDAIKRDALLENVIIKSDGEPDYTDTSRTENTRVSYPIYHIDNHEPSGMGGHPTSIIFLTCDAFGVLPPVSRLSGGQAMYHFLSGYTAKVAGTERGVTEPTPNFSACFGAAFLTLHPTKYADLLQKKLDKHQTQCFLINTGWTGGGYGVGKRMSIKATRACVNAVLDGSINKANFTNDEVFGFEVPAELPEVPAQVLNPRAAWSDKEKYDNTRIKLAGMFKDNFKKFIKEGATDYSSYGPK
B7: efeB (Bacillus subtilis, UniProt P39597); chain IGASGLGGLAPLVQTAAKPSKKDEKEEEQIVPFYGKHQAGITTAHQTYVYFAALDVTAKDKSDIITLFRNWTSLTQMLTSGKKMSAEQRNQYLPPQDTGESADLSPSNLTVTFGFGPGFFEKDGKDRFGLKSKKPKHLAALPAMPNDNLDEKQGGGDICIQVCADDEQVAFHALRNLLNQAVGTCEVRFVNKGFLSGGKNGETPRNLFGFKDGTGNQSTKDDTLMNSIVWIQSGEPDWMTGGTYMAFRKIKMFLEVWDRSSLKDQEDTFGRRKSSGAPFGQKKETDPVKLNQIPSNSHVSLAKSTGKQILRRAFSYTEGLDPKTGYMDAGLLFISFQKNPDNQFIPMLKALSAKDALNEYTQTIGSALYACPGGCKKGEYIAQRLLES
B8: enzyme (Pseudomonas poae, UniProt A0A2S9EJ63); chain MSTQHYDYIIVGGGSAGSVLANRLSAQADKRVLLIEAGADTPEHDTPTDILDGLQPWLPRLAGERYFWPGLNILRASEHGDIPREPQLYEQARILGGGSSVNMMVANRGLPRDYDEWARLGADGWDWQGVLPYFRKLERDLDFGHSHPEQHGQDGPIPIARVDSRHWGSFTRASAQALHTQGLNDIVDQNGRFEDGYFAPAVAIEHDQRVSSARAYLNAAVRARPNLSVWADTTVRQLTVKGQRVTGVQAVRDGRTVELAGDEVILAAGALQSPAFLLRAGIGPADQLRDLGIEVIADRPGVGRNLWDHSSIGLSASLHHPQVPSDEPGAAHLLAARVSSGVEPSVPGDLYLGIAPNAALGLASAVLWVNKPSSSGHLRLRSKDPADYPAVEFNLLSDRRDLERLRQGLRLLARVFAHPAVAAFSGPPRLSRFAQASNEGPLLSELLANDAQLERYLRTHVGGVWHASGTCRIGRADDPQAVVDHAGRVHGVQGLRVADASVFPSIPTANTNLPTLMIAEKIAEAILANA
B9: groEL (Pseudomonas aeruginosa, UniProt P30718); chain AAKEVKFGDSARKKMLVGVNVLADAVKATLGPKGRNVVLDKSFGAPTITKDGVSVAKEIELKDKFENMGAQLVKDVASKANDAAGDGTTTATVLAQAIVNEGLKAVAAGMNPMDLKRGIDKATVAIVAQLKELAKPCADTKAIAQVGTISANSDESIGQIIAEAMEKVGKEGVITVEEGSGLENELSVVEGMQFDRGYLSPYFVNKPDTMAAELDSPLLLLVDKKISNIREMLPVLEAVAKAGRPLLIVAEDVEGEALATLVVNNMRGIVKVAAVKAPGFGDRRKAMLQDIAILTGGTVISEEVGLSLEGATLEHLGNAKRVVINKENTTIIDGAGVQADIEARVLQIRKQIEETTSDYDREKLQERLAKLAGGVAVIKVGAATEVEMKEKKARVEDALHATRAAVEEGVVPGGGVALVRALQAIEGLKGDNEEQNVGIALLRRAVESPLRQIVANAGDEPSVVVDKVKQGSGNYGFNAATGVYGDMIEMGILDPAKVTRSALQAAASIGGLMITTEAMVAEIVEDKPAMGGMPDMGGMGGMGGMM
B10: aspC A106G/A218G/F210I/I29V/I33V/I68L/I71L/N30D/N64T/S135A/T100S/V136I/V375I (Escherichia coli, UniProt P00509); chain MFENITAAPADPILGLADLFRADERPGKVDLGVGVYKDETGKTPVLTSVKKAEQYLLENETTKTYLGLDGLPEFGRCTQELLFGKGSALINDKRARTAQSPGGTGGLRVAADFLAKNTSVKRVWVSNPSWPNHKAIFNSAGLEVREYAYYDAENHTLDFDALINSLNEAQAGDVVLFHGCCHNPTGIDPTLEQWQTLAQLSVEKGWLPLIDFAYQGFGRGLEEDAEGLRAFAAMHKELIVASSYSKNFGLYNERVGACTLVAADSETVDRAFSQMKAAIRANYSNPPAHGASVVATILSNDALRAIWEQELTDMRQRIQRMRQLFVNTLQEKGANRDFSFIIKQNGMFSFSGLTKEQVLRLREEFGVYAVASGRINVAGMTPDNMAPLCEAIVAVL
Sequence of UniProt P78804 (whole entry, looked up): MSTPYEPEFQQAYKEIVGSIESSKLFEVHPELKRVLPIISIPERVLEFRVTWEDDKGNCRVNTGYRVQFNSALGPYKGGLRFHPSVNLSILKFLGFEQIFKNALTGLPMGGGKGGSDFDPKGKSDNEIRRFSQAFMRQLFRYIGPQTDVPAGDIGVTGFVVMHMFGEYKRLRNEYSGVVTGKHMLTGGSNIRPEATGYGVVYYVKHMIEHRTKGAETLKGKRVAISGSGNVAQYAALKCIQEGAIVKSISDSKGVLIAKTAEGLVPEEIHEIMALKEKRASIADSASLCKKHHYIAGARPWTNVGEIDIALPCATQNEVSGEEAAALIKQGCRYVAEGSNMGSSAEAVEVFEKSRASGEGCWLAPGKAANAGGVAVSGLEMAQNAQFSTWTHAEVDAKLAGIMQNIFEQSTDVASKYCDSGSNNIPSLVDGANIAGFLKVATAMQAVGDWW

| Molecule | tested on | assay | system | conditions | scale | quantity | result |
| --- | --- | --- | --- | --- | --- | --- | --- |
| gdh E198G/N192S/N97F (Bacillus subtilis) | NC(=O)c1ccc[n+]([C@@H]2O[C@H](COP(=O)(O)OP(=O)(O)OC[C@H]3O[C@@H](n4cnc5c(N)ncnc54)[C@H](O)[C@@H]3O)[C@@H](O)[C@H]2O)c1 | steady-state kinetics | – | pH 7, 50 °C | – | kcat/Km | 82500 ± 1830 M⁻¹ s⁻¹ |
| B1 | CYB5R4 knockout human cells | PP4 interaction, 3xFLAG-PP4C IP-MS | – | concentration not given | relative to: CYB5R4 KO over parental | log2 fold change | 1.18 |
| B2 (enzyme) | NC(=O)C1=CN([C@@H]2O[C@H](COP(=O)(O)OP(=O)(O)OC[C@H]3O[C@@H](n4cnc5c(N)ncnc54)[C@H](O)[C@@H]3O)[C@@H](O)[C@H]2O)C=CC1 | steady-state kinetics | – | pH 7.5, added: DHAP 5 mM | – | kcat/Km | 3.2e+06 ± 300000 M⁻¹ s⁻¹ |
| B3 (SCO6712 V290N) | CCn1c(=NN=c2sc3cc(S(=O)(=O)O)ccc3n2CC)sc2cc(S(=O)(=O)O)ccc21 | steady-state kinetics | – | pH 7, 37 °C, NaCl 150 mM, added: O2 cosubstrate | – | kcat/Km | 1460 ± 80 M⁻¹ s⁻¹ |
| human ME2 R67A | – | enzyme activity, NADH absorbance | – | without fumarate, added: L-malate varied | – | Hill coefficient | 1.2 ± 0.28 |
| B4 (human DDX3Y) | CYB5R4 knockout human cells | PP4 interaction, 3xFLAG-PP4C IP-MS | – | concentration not given | relative to: CYB5R4 KO over parental | log2 fold change | -0.76 |
| B5 (enzyme) | O=C(O)/C=C/C=C(\O)C(=O)O | steady-state kinetics | – | pH 7.3, 24 °C | – | kcat/Km | 3.3e+07 M⁻¹ s⁻¹ |
| CAUCACCUC (ssRNA) | U2AF2 | sequencing of bound RNA | RNA | motif only | – | Kd | 1660 nM |
| B6 (enzyme) | O=C(O)CC(=O)C(=O)O | steady-state kinetics | – | pH 7.5, 25 °C | – | kcat/Km | 350000 M⁻¹ s⁻¹ |
| B7 (efeB) | CCn1c(=NN=c2sc3cc(S(=O)(=O)O)ccc3n2CC)sc2cc(S(=O)(=O)O)ccc21 | steady-state kinetics | – | pH 6, 25 °C, apparent | – | kcat/Km | 8900 M⁻¹ s⁻¹ |
| CUCUGUCCU (ssRNA) | U2AF2 | sequencing of bound RNA | RNA | motif only | – | Kd | 700 nM |
| HNL E79H/G176S/H103V/K236M/N104A/T11G (Hevea brasiliensis) | CC(=O)Oc1ccc([N+](=O)[O-])cc1 | steady-state kinetics | – | pH 7.2, 22 °C | – | kcat/Km | 867 M⁻¹ s⁻¹ |
| enzyme N248Y/Q325R/R246H/R328K/S219F (Arabidopsis thaliana, UniProt O24495) | C[C@@H](O)C(=O)SC[C@H](NC(=O)CC[C@H](N)C(=O)O)C(=O)NCC(=O)O | steady-state kinetics | – | pH 7.2, 25 °C | – | kcat/Km | 70000 ± 30000 M⁻¹ s⁻¹ |
| enzyme (Schizosaccharomyces pombe, UniProt P78804) | NC(=O)C1=CN([C@@H]2O[C@H](COP(=O)(O)OP(=O)(O)OC[C@H]3O[C@@H](n4cnc5c(N)ncnc54)[C@H](O)[C@@H]3O)[C@@H](O)[C@H]2O)C=CC1 | steady-state kinetics | – | pH 7, 30 °C, apparent | – | kcat/Km | 2500 ± 100 M⁻¹ s⁻¹ |
| B8 (enzyme) | COc1cc(CO)ccc1O | steady-state kinetics | – | pH 8, 30 °C | – | kcat/Km | 413 M⁻¹ s⁻¹ |
| acsA D449E (Pseudomonas chlororaphis) | O=C(O)CCC(F)(F)F | steady-state kinetics | – | pH 7 | – | kcat/Km | 117 ± 33.3 M⁻¹ s⁻¹ |
| B9 (groEL) | Nc1ncnc2c1ncn2[C@@H]1O[C@H](COP(=O)(O)OP(=O)(O)OP(=O)(O)O)[C@@H](O)[C@H]1O | steady-state kinetics | – | pH 7.4, 24 °C, apparent, per site | – | kcat/Km | 892 M⁻¹ s⁻¹ |
| enzyme F30A (Homo sapiens, UniProt Q08623) | O=c1[nH]cc([C@@H]2O[C@H](COP(=O)(O)O)[C@@H](O)[C@H]2O)c(=O)[nH]1 | steady-state kinetics | – | pH 7, 25 °C | – | kcat/Km | 167000 M⁻¹ s⁻¹ |
| enzyme (Pseudomonas aeruginosa, UniProt Q9HTP2) | N=C(N)NCCCC=O | steady-state kinetics | – | pH 8, 30 °C, per site | – | kcat/Km | 290000 ± 30000 M⁻¹ s⁻¹ |
| B10 | N[C@@H](Cc1ccccc1)C(=O)O | steady-state kinetics | – | pH 7.5, 25 °C, added: PLP 20 µM | – | kcat/Km | 13000 M⁻¹ s⁻¹ |

Some of these lines once more:
| Molecule | tested on | assay | system | conditions | scale | quantity | result |
| --- | --- | --- | --- | --- | --- | --- | --- |
| CAUCACCUC (ssRNA) | U2AF2 | sequencing of bound RNA | RNA | motif only | – | Kd | 1660 nM |
